Assay results from different studies.
A part holds a random share of what one study measured.

Block 1
Target: RING finger protein unkempt homolog, zinc fingers 1-6, SBP tag (UNK, Homo sapiens, UniProt Q9C0B0, residues 30-357)
Chain of UniProt Q9C0B0 (30-357, looked up): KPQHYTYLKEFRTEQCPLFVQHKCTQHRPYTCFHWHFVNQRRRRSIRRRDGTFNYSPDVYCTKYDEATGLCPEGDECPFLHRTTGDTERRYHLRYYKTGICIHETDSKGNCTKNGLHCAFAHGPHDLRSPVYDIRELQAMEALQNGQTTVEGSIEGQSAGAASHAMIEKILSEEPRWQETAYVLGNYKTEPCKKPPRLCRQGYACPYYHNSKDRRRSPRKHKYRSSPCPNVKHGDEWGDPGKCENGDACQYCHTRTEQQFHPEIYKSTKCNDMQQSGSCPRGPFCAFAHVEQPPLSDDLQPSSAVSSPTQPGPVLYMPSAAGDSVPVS
Technique: RNA Bind-n-Seq
Form: RNA
Medium: in vitro
Tested at: 100 nM
Notes: RNA with constant flanks, vertebrate orthologous sites, ends assumed
Baseline: input RNA pool
Reading: higher = stronger binding
Oligonucleotide | bound/input enrichment [ratio]
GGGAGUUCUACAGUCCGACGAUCUUCAGUCCCCUGGGCUGGGACACUUGUUUUUUAACGUCUUGAAAUUUAACUCUGUGCUUGUGGAAGACUGUAACCUUUUUGUCUUUUUUUUUUUUAAACCAUCAAUCUCCACCUCCAGUGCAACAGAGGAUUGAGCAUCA | 0.701
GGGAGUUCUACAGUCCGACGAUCUGGGUGACUUUGGACGUCCGCUCAGCCAGGUUGCAGAAGCGGUUUAGUGUGUGUCCUAAUCUUCUCUCUCUGUAGGUAGGCCUGUGCCGCAAACAUGCUCCGCCAGAUCCUCGGGCAAGCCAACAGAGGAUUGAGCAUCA | 0.401
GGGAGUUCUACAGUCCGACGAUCAGCAACCCAAGGACUCAGGACUGGUUUAACAAAUAUGCCAAGUAGAUAUGGAACUCACAAUAGAAUUGGACAACCAAGACCAUGAUGUACUGUAAAUUAAUUUAUUUUUAUGAGGAAUACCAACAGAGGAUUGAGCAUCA | 1.26
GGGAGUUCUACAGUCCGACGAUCUGUCUUGGUUUGGGGUAGAGGGGAGGGAGGGGCAGGACAGUGUGGAAUCUCUAGGGUGUAUGCAUAGGUAGCCUACACGGUUAGUUCUAAUUGGGCCUUUAUGUUAAAAACCUCUGGGGGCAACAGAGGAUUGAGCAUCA | 1.34
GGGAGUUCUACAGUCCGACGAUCAAAUGGCUUCUGCUCCAUUAAGAAGAGUAAAAAUAGUCCCGCAACUAUAAAGCUCCUCAAUAGCUAUUUUUAAAAUAAAAAUGUUUAAAUUUUGUAAAUCACCUGAUGCCACUACACGACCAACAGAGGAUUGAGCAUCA | 2.25
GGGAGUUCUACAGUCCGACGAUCAAAAUAGGUUCUGCUCCAUUAAGAGAGUAAAACUAGUCCCUCAAAUAUAAAACUCCUAAAUAGCUAUUUUUAAAAUAAUAUUUAAAUUUUAUAAAGCACCUAAUGCCACACCACAACUGUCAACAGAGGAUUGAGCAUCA | 1.17
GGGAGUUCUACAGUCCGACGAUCAUGUAAGUAGAAAACAAUUUUCAUUCAUCUUCCCAUUGUGAAAUUCUCUAGCACUGUAUUUAGAAUCUGGAUUUUUAUAAUUCAUGCUUAAUGUAUUAGACAUUUUUAGCCCAUAAUUAACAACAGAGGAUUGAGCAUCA | 1.37
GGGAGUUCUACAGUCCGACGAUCAGCAACCCAAGGAUUCAGGACUGGUCUUAUAAAUACACCAAGUAAAUCUGGAACUAACAACAGAAUUGGACAACCUAGGCCUUAAUGUACCUCUAGUGUGUAUUUAUGAGGAAUUUUGACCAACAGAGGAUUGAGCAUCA | 0.578
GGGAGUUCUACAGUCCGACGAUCGUUGCGACCCAUUUAACAUACAUAAAAAGCUGGCCAAAAAGAACCUGCAUGUCAUUGACUUGGACGAUGCCACUUUUCUGAGUGCAAAAUUCGGAAGGCAGCUGGUGCCUGGUUGGAAGCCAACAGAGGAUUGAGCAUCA | 0.4
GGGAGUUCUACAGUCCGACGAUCCCCGCACGCCCCCUGGGAGGGCGUGGGGGAGGGGAGCCUGAUGACUCAGCUGGUCCAAUACGGUACUUUAUUUCCUUUUUUUUUUAAAUCACUGUAUUUAUUAUGACAAUGGUGACUCCCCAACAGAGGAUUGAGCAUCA | 0.362
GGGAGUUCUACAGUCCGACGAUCGUUAGGUCAUGACCCUUACAGGCUAGGUCAUGAUGCCUACAGGUUAGGGCAGGACCCCUAUAGAUUAGGCCACGAUCCCUACAGACUAACUCCUGAUCCCUAUAGGAUGUCACCUAGACCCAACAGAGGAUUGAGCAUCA | 0.568

Block 2
Target: Histone acetyltransferase KAT6A, winged helix 1, GST fusion (KAT6A, Homo sapiens, UniProt Q92794, residues 1-85)
Technique: protein binding microarray
Form: double-stranded DNA, one strand shown
Medium: in vitro
Tested at: not given
Notes: 8-mer, flanks averaged, mean of 2 arrays, mostly near background
Baseline: not given
Reading: higher = stronger binding
Target sequence (chain): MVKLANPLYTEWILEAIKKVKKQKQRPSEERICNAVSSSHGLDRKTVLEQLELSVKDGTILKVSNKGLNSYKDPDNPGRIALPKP
Oligonucleotide | E-score
TATTGAGA | -0.206
TACTGTCA | -0.0908
AGGACCAA | -0.196
AAATAAAG | -0.246
ACAAGGCC | 0.0154
CGTCTTAC | 0.0374
AGGAGCCG | 0.127
GATCTCAC | 0.0408
CGATTGTC | -0.0145
TTATGAAA | -0.137
ACGTTTAT | -0.0851
GCACAGGC | 0.037
AAATAGCC | 0.00669
ACTAATTG | -0.0549
CCAGACAG | -0.272
TACTCAAA | -0.0794
TCAGGTAA | -0.138
AGATACCT | -0.0962
CGCAATCC | 0.205
ATCATTGG | -0.197
GCCTAGCA | -0.019
AGTCCTCA | -0.189
GCCAAGTA | -0.153
CGCCGATC | 0.352
GGATGTTA | 0.123

Block 3
Target: Sal-like protein 4, full length isoform B (SALL4, Homo sapiens, UniProt Q9UJQ4-2, residues 1-616)
Technique: universal PBM
Form: double-stranded DNA, one strand shown
Medium: in vitro
Tested at: not given
Notes: 8-mer, flanks averaged, mean of replicates
Reading: higher = stronger binding
Oligonucleotide | E-score
ATGAACAT | 0.261
GAAGACCA | -0.207
AGCAGCAA | -0.0263
TCGATGCA | -0.0895
CTGCTGTC | -0.269
CTGCCCTC | -0.268
GCTGACGA | -0.0773
GACCCAGA | -0.206
AAGCATGG | -0.0188
GCGCGTTA | -0.0194
CAATCTGA | 0.032
AAAACTAC | 0.128
GACACTAA | -0.00739
CGCCCTAA | -0.115
AACCCTAG | 0.039
GACGGATC | -0.207

Block 4
Target: RNA binding protein fox-1 homolog 2, RRM domain, GST-SBP tag (RBFOX2, Homo sapiens, UniProt O43251-10, residues 100-194)
Technique: RNA Bind-n-Seq
Form: RNA
Medium: in vitro
Tested at: 365 nM
Notes: natural RNA segment, single round, ends assumed
Baseline: no-protein control
Reading: higher = stronger binding
Construct (chain): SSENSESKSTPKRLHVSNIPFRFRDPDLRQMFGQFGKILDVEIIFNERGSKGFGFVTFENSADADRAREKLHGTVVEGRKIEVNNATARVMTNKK
Oligonucleotide | RBNS enrichment (R)
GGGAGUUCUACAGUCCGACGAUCCAUCCUAGUUCCAGGUGUAACUUGGUGGCCAGAAUUGAGAAGAGUGCCAAAUGACCACCCGUCAGGCAGAUUGAGGGCCAUCACUUCAAACAUAGAUUAAAUUUGUUUAGUGGAAUUCUCGGGUGCCAA | 0.364
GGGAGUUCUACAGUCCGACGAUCAUGUAUUGCACUAUACUUCUAAUGGAACUAAUCAUCUCCACCAUAGUGUGUGCCUUCUAUAAAGGAGAAAGCAGCAAGGCCAUGUCCUUAGCAGGAACCUUUGCUAGCCAUGGAAUUCUCGGGUGCCAA | 1.13
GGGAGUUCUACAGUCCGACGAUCUGGGGAGGGGAAACUUGUGAAUGUAACUUGCCUGUGCCGUGUGACGGUCACGUGGGCCUGGUCUUUUGUGUGUGAGGCCCUUGACCGUGUGGCCUCUGCCUGGCUGUUUGUGGAAUUCUCGGGUGCCAA | 3.76
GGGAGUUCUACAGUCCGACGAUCAUAGUUCUAUCAGGAAAACAAAUCACUGUAUUUAUCUCCGCAGGCUAUUUGUUCAGAGAGGCCUUUUGUUUAAAUAUAAAUGUUUAAAUAUAAAUGUUUGUCUGGAUUGGUGGAAUUCUCGGGUGCCAA | 0.483
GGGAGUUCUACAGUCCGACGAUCGGGACUUCAUCACUGAGUACUGUGACAGUAUGUGUCAUCUCUGGGCCAAAGGACAAGCCAUUGAUCCCAAAGCCUCGUAUGCCCACCAGGGCCCCUGGUGCCACUGCGUAUGGAAUUCUCGGGUGCCAA | 0.457
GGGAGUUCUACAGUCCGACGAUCUAUACAUAUAUACGUACAUAUGCUGUCCAAAUAUAUUUGUAUAUAUUUGUAUAGCAUUUUUACACCUUUAUUGAGUAAUCUGGUUUCGAAAGGAGGUGAGAGUUUAGUCCUGGAAUUCUCGGGUGCCAA | 0.409
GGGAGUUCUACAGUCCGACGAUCCUGCCGUCCAAUGCUGGGAUUGAAGGUGUGCACAGCCACACCAGCUUAAGGUUUUGUUAAAGAAGACGAUAGGUAUGGCUGGAUUAUAUAGUCUUCAGGUUCACAUGAACUGGAAUUCUCGGGUGCCAA | 0.394
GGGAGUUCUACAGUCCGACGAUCUAGCAUCUGUGUGUAUUAAUUCUGAAGAAUUAAAUGUUUAAAUUAGAGUUUAAAUGUUGACGGCGUUUGCUAUGUAUAAUUGCCCCUACACCGUUAUAAAGUGUUUUCAGUGGAAUUCUCGGGUGCCAA | 0.397
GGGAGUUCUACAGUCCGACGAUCGGACCUGGAGUUCGGGCAGAUGUGACAUCAAUAAAACUGCGUCUCACAUUUUAACCAUGUUUUCUGACACCAGAGGAGUAGUGUGGACUCUUACAUUCCGGAGUUUGGGUUGGAAUUCUCGGGUGCCAA | 0.361
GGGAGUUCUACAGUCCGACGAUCUUCUCAGCAGGGCUGAUGCUGCCCAAGAUAAGUAUAUCUGUCCACAUUAGUCAUUUUAGUCGAUUCCAACAGGUGAGACUUGCUUUCUACAAAGCAUCCCUUAGAAGUCCUGGAAUUCUCGGGUGCCAA | 0.283
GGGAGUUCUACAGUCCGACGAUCCAGUCUUAGUUGCAUUUGUUGUUUAUUUGUUGGGCUCACCCAACUCUUGACACCAUAGCAGAGCAUCUCCGCAAGGUCCAUCCUCCGGAAUGAGGCUGUUGGGGUGUCCUUGGAAUUCUCGGGUGCCAA | 0.277
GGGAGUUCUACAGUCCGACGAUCGAACUGCCUUCUUAUACUACAGAACAUGCAUUAGUGUGGGCUAUAUAGCUGUGGCUCAUGCUACCCAAUUCCAGAUUUCUUUGUCCUCUAAGAGUUGAUUGCUGUAUAUUUGGAAUUCUCGGGUGCCAA | 0.476

Excerpt of the above (block 3):
Oligonucleotide | E-score
GAAGACCA | -0.207
ATGAACAT | 0.261
GACCCAGA | -0.206
AGCAGCAA | -0.0263
GACACTAA | -0.00739
